Experimental data collected from several papers.
Numbered parts are unrelated; each lists some results of a single study. Substitutions count along the parent as printed.

Sample 1
Target: Histone acetyltransferase KAT6A, winged helix 2, GST fusion (KAT6A, Homo sapiens, UniProt Q92794, residues 85-181)
Technique: protein binding microarray
Form: double-stranded DNA, one strand shown
Matrix: in vitro
Concentration: not given
Setting: 8-mer, flanks averaged, mean of 2 arrays, mostly near background
Baseline: not given
Reading: higher = stronger binding
Target sequence (chain): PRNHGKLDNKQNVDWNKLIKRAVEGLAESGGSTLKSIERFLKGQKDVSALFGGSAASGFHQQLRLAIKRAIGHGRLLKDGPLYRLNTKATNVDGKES
Oligonucleotide	E-score
AATGCCCA	0.0502
AAGCAAGT	-0.0939
CAGTGAGA	0.0176
TATATACA	-0.109
AGTGAGCA	0.00541
AGAGGGTA	-0.127
ATACATAA	-0.025
CAACACGA	0.000985
CAATCTAC	-0.0836
CGTTCTGC	0.0706
TAATGGCA	-0.0239
CAGGGTTA	-0.069
ACACGCTC	-0.0542

Sample 2
Target: ABI1, truncated, D143A, DHFR fusion (Arabidopsis thaliana)
Technique: DHFR PCA, deep sequencing
Matrix: yeast
Setting: methotrexate growth selection, single substitutions
Added: (+)-ABA 4.8 µM
Baseline: wild-type fitted maximum
Reading: higher = stronger binding
Starting sequence: PYL1, truncated, DHFR fusion (Arabidopsis thaliana); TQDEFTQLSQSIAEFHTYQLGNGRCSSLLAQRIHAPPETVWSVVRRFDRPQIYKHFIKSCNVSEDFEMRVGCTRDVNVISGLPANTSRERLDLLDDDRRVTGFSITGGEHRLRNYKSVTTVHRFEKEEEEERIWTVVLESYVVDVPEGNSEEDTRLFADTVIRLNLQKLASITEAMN; partner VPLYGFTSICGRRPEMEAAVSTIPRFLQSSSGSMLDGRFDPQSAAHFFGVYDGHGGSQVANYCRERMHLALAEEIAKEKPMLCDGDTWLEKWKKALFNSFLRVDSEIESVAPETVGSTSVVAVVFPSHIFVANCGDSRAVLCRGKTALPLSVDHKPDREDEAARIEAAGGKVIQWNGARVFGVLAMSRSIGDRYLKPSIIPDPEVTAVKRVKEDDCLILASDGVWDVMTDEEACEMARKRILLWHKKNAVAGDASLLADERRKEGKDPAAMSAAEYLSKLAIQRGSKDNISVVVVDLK
Change	relative binding score [%]
S140F	-0.434
R32N	41.1
T101L	74
G107T	1.46
A84K	5.11
Q167A	77.3
F47V	-8.31
P50F	-9.22
I57W	17.9
V145G	5.81
H34P	34.3
A158C	108
A175Y	51.5
T173H	-6.12
G148Q	25.1

Sample 3
Target: PABPC1L2, full length, GST fusion (mouse, UniProt A0ABA7IW68)
Technique: RNAcompete
Form: RNA
Matrix: in vitro
Concentration: 20 nM
Setting: 7-mer, probes averaged, single round
Baseline: mean of 7-mers
Reading: higher = stronger binding
Construct (chain): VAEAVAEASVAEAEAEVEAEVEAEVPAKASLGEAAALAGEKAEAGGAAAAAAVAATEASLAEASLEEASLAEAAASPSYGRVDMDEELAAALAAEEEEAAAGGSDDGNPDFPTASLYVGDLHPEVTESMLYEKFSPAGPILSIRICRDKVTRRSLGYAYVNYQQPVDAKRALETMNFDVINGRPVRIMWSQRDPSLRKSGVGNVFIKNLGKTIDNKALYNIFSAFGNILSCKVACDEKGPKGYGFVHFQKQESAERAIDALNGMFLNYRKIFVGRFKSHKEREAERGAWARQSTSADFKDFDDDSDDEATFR
Oligonucleotide	7-mer Z-score
AUCACGA	-0.012
AGUAGUU	-0.195
AGUGUCA	0.0841
GCGUGUA	-0.124
UUCCUGU	-0.362
GGACUUG	-0.0573
UCUGGAC	-0.188
UUUUUCG	-0.101
GUCCAUU	-0.266
ACGCUGC	-0.202
CAGGUCA	0.00254
GCAGUUU	-0.199
CGCUAAU	-0.246
AGUUGUC	-0.338
CAAUCAC	-0.0645
AGGGCAU	0.407
CGGCUAC	-0.153
AUUACAA	0.292
GAUGAAA	0.408
CGCAAUG	-0.0609
UCAACGA	-0.233
UGGUUAG	-0.0627
AGCUUCC	-0.278
ACGCCAC	-0.153
AGCAAAC	0.468

Sample 4
Target: CCNB2, cyclin fold, Cln2 fusion (human)
Technique: yeast growth competition, sequencing
Matrix: yeast
Setting: weak parent motif
Baseline: not given
Reading: higher = stronger binding
Starting sequence: FZR1 docking peptide (human); QDYERRLLRQIVI
Change	normalised enrichment score
L8A	0.367
L8F	0.0335
E4A	0.57
R5K L8F	0.34
R5A L7A	0.326
Q1A	0.764
Q10A	0.318
V12A	0.413
L7A	0.377
I11A	0.615

Sample 5
Target: RING finger protein unkempt homolog, zinc fingers 1-6, GST-SBP tag (UNK, Homo sapiens, UniProt Q9C0B0, residues 30-357)
Technique: RNA Bind-n-Seq
Form: RNA
Matrix: in vitro
Concentration: not given
Setting: RNA with constant flanks, human-mouse chimeric sites, ends assumed
Baseline: input RNA pool
Reading: higher = stronger binding
All sequences stand within: GGGAGUUCUACAGUCCGACGAUC … CAACAGAGGAUUGAGCAUCA
Residues (chain): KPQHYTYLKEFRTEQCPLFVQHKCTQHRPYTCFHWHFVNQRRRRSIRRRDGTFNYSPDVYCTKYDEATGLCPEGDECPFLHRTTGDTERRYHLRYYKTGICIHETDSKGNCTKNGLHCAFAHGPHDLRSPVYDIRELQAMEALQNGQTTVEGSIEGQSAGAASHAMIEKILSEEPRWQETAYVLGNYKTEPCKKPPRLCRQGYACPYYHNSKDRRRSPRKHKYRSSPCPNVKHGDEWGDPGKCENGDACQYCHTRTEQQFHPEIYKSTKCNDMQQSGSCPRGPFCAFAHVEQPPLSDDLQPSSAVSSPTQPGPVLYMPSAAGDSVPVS
Oligonucleotide	bound/input enrichment
CAGUCCCCGUGUCCCAGUGCAGGACGAUGUGAACAAAUCGAAGACAUGGACCCUCUAUUGUAGUUCUUGAUUCUCGAAAUGUGCUAUUGUUUUUAAACUUUUUUUUUUUUUUUUUAAAGA	1.31 ratio
UAAAUUAGGGCUGCCGUUUUCUGUUUCUCCCUGGGCUGCGGAAAGCCAGAAGAUUUUAUCUAGCUUAUACAAGGCUGCUGGUGUUCCCUCUUUUUUUCCCUCUCUCUGUUUUUGGCUGCA	1.2 ratio
AGAGCCCAGGAUGUUGAUGCUACAAAUCCAAAUUACGAAAUUAUGUGUAUGAUCAGAGACUUUAGAGGAAGUUUGGAUUACAGACCCCUAACAACAGCAGAUCCUAUUGAUGAACAUAGG	0.452 ratio
CACGUGUCUGCAGUACUUGAUGUGGACUACUCUCCCACUGGGAAGGAAUUUGUGUCUGCCAGCUUUGAUAAGUCUAUUAGAAUCUUUCCUGUGGACAAAAGUCGAAGCAGGGAAGUGUAU	0.39 ratio
GCGGCAGAAUCAUGGAGGACAUAAUGCACUUGCCCAGAGCGCGCGUCAACGCCAGCAUGCUAGCUCAGUAUAUCGACCGGCCCGUGUGCUUCGUGGGGAAGCUGGAAAAGAUUCAUCCCA	0.0995 ratio
CGCCUGGAUGAGGCGGGUGUCACAGAUGAAGUGCUAGAUUCUGCCAUGCAAGCCUUCCUUCUGGAGGUCAUUGUUAAACAUGGGGAGCCGGCACCUUAUUUAUGUAAUAAAGAUCCUUUU	0.0836 ratio
UGGCGCCUGCGCUCCCCGUUUUUAAAUUUAAGUGUAUUUUUAUAAGAUACAUGUAUUUACAAUUGAGCUUUUGUUACUAUAAUACUGAAUGCUACUGGAGAUUAUGAAAAAUGUUUCAAU	0.629 ratio
UAUAAUAAUCAUGAAAUUCGUUCCGGGAAACAUAUUGGUGUCUGCAUCUCAGUUGCCAACAAUAGGCUUUUUGUGGGCUCGAUUCCUAAGAGUAAAACCAAGGAACAGAUUCUUGAGGAA	1.94 ratio
